{"data": "Measured values collected from several papers", "note": "Compare with care: the assays were run in different laboratories. “And” joins repeats or separate records; there may be more than shown. Numbers after ± are the reported error."}
{"SMILES": "C[C@@H](O)[C@H]1C(=O)N2C(C(=O)O)=C(SCCN=CN)C[C@H]12", "organism": "Acinetobacter baumannii", "test system": "0403, female ICR mice, peritonitis, blood", "conditions": "dose not given", "measurement": "bacterial load", "result": "2.52 log CFU and 0 log CFU"}
{"SMILES": "C=C[C@]1(C)C[C@@H](OC(=O)CS[C@@H]2C[C@H]3CC[C@@H](C2)N3C)[C@]2(C)[C@H](C)CC[C@]3(CCC(=O)[C@H]32)[C@@H](C)[C@@H]1O", "organism": "Enterococcus faecium", "test": "agar dilution", "test system": "vancomycin-intermediate, 25 isolates", "measurement": "MIC50", "result": "64 µg/mL"}
{"SMILES": "CC(=O)Oc1ccccc1C(=O)Nc1ncc([N+](=O)[O-])s1", "organism": "Cryptosporidium parvum", "test system": "HCT-8", "conditions": "6 x EC90, 0 h", "scale": "relative to: DMSO control", "measurement": "parasite number", "result": "93.3% and 96.8% and 109% and 101%"}
{"SMILES": "CO[C@H]1/C=C/O[C@@]2(C)Oc3c(C)c(O)c4c(c3C2=O)C2=NC3(CCN(CC(C)C)CC3)NC2=C(NC(=O)/C(C)=C\\C=C\\[C@H](C)[C@H](O)[C@@H](C)[C@@H](O)[C@@H](C)[C@H](OC(C)=O)[C@@H]1C)C4=O", "organism": "Mycobacteroides abscessus", "test": "intracellular growth, Hill fit", "test system": "THP-1 derived macrophages, ATCC 19977", "measurement": "IC50", "result": "685 nM"}
{"SMILES": "O=C(N1CCc2ccccc21)n1ccnn1", "organism": "Arabidopsis thaliana", "test system": "atd14-1 mutant, seedlings", "conditions": "5 µM, continuous red light, with: 1 µM (±)-GR24", "measurement": "hypocotyl length", "result": "2.94 mm and 2.11 mm and 2.18 mm and 1.71 mm and 1.99 mm and 2.84 mm"}
{"SMILES": "CC1=CC(=O)CC(C)(C)[C@@]1(O)/C=C/C(C)=C\\C(=O)O", "organism": "Arabidopsis thaliana", "test system": "pyr1/pyl1/pyl2/pyl4 mutant, seeds", "conditions": "1 µM", "measurement": "number of germinated seeds", "result": "29 and 33 and 31"}
{"SMILES": "CC(=O)N1CCC(C(=O)N2CCN3C(=O)c4cc(-c5ccccc5)ccc4NC(=O)C3C2)CC1 (stereo not drawn)", "organism": "Caenorhabditis elegans", "test system": "N2", "conditions": "50 µM", "measurement": "mean lifespan", "result": "26.5 days"}
{"SMILES": "COC(=O)[C@@H](NCc1cc2ccccc2nc1OCc1ccccc1)C(C)C", "organism": "Pseudomonas aeruginosa", "conditions": "16 µg/mL, without pentamidine", "scale": "relative to: control", "measurement": "growth", "result": "93.5%"}
{"SMILES": "N=C(N)c1cccc(OCc2ccc(COc3cccc(C(=N)N)c3)cc2)c1", "organism": "Escherichia coli", "test": "checkerboard", "test system": "mcr-3 polymyxin-resistant", "conditions": "concentration not given, with: rifampicin", "measurement": "MIC of compound in combination", "result": "50 µg/mL"}
{"SMILES": "CN[C@H](CC(C)C)C(=O)N[C@H]1C(=O)N[C@@H](CC(N)=O)C(=O)N[C@H]2C(=O)N[C@H]3C(=O)N[C@H](C(=O)N[C@H](C(=O)O)c4cc(O)cc(O)c4-c4cc3ccc4O)[C@H](O)c3ccc(c(Cl)c3)Oc3cc2cc(c3O[C@@H]2O[C@H](CO)[C@@H](O)[C@H](O)[C@H]2O[C@H]2C[C@](C)(N)[C@H](O)[C@H](C)O2)Oc2ccc(cc2Cl)[C@H]1O", "organism": "Staphylococcus", "test system": "MRSA-38, mouse systemic infection", "conditions": "intravenous", "scale": "survival", "measurement": "ED50", "result": "8.38 mg/kg"}
{"SMILES": "COc1cc(NC(=O)Cn2ccc3cc(F)c(-c4cnn(C)c4)cc32)cc(OC)c1OC", "organism": "Plasmodium falciparum", "test": "luminescence", "test system": "red blood cells, 3D7 Hyp1-Nluc", "conditions": "10 × EC50, 8 h", "scale": "relative to: DMSO", "measurement": "fold lysis", "result": "5 fold"}
{"SMILES": "Brc1ccc2nc(SCc3ccccc3)c(CNCc3ccc(CN4CCCC4)cc3)cc2c1", "organism": "Acinetobacter baumannii", "test": "NADH-driven proton pumping, ACMA quenching", "test system": "inverted membrane vesicles", "conditions": "2 µg/mL", "measurement": "inhibition", "result": "9%"}
{"SMILES": "CC(=O)NC[C@H]1CN(c2ccc(N3CCOCC3)c(F)c2)C(=O)O1", "organism": "Staphylococcus epidermidis", "test": "broth microdilution", "test system": "methicillin-resistant isolates", "measurement": "MBC", "result": "32 µg/mL"}
{"SMILES": "Cc1cc(OC(C)C)ccc1C(=O)C(C)(C)NC(=O)c1sccc1C", "organism": "Botrytis cinerea", "test": "appressorium formation", "test system": "B05.10", "conditions": "1 µg/mL", "measurement": "inhibition", "result": "99.6 ± 0.7%"}
{"SMILES": "O=c1cc2ccocc-2o1", "organism": "Arabidopsis thaliana", "test system": "wild type, seeds", "conditions": "1 µM, after high temperature", "measurement": "germination rate", "result": "55.7%"}
{"SMILES": "Nc1nc(-c2ccccc2)nc2[nH]nc(Nc3ccc(C(F)(F)F)cc3)c12", "organism": "coxsackievirus B3", "test system": "31-1-93, NMRI mice, CVB3 chronic myocarditis", "conditions": "oral, 100 mg/kg twice daily, day 9, dosed days 0 to 6, score scale 0 to 7", "scale": "direction not given", "measurement": "clinical score", "result": 0.2}
{"SMILES": "CN1CCN(CCNCc2cc3cc(-c4ccccc4)ccc3nc2SCc2ccccc2)CC1", "organism": "Acinetobacter baumannii", "test": "NADH-driven proton pumping, ACMA quenching", "test system": "inverted membrane vesicles", "conditions": "32 µg/mL", "measurement": "inhibition", "result": "95%"}
{"SMILES": "CCOC(=O)/C=C/[C@H](C[C@@H]1CCNC1=O)NC(=O)[C@@H](CC(=O)[C@@H](NC(=O)c1cc(C)on1)C(C)C)Cc1ccc(F)cc1", "organism": "Rhinovirus C", "test": "high-throughput screen", "test system": "RV-C15a-mGL", "conditions": "10 µM", "measurement": "viral replication", "result": "inhibited"}
{"SMILES": "O=c1[nH]c2ncsc2c(=O)n1O", "organism": "Echinochloa crus-galli", "test": "glasshouse pot", "conditions": "750 g/ha, 21 days, pre-emergence", "measurement": "inhibition", "result": "0%"}
{"SMILES": "O=c1c(-c2nc3ccccc3s2)cc2c(n1NS(=O)(=O)c1ccc(Cl)cc1)CCCC2", "organism": "Human alphaherpesvirus 1", "test": "viral replication, plaque reduction", "test system": "Vero cells", "conditions": "non-toxic concentration", "measurement": "reduction", "result": "0%"}
{"SMILES": "C=C[C@]1(C)C[C@@H](OC(=O)CSCCN(CC)CC)[C@]2(C)[C@H](C)CC[C@]3(CCC(=O)[C@H]32)[C@@H](C)[C@@H]1O", "organism": "Mycoplasma gallisepticum", "test system": "infected chickens, lung", "conditions": "intramuscular, 40 mg/kg", "measurement": "lung mycoplasma count", "result": "3.69 log10 CFU/mL and 3.34 log10 CFU/mL and 2 log10 CFU/mL and 3.78 log10 CFU/mL and 3.74 log10 CFU/mL and 3.73 log10 CFU/mL"}
{"SMILES": "COC(=O)[C@H](Cc1c[nH]c2ccccc12)NCc1cc2ccccc2nc1SC", "organism": "Pseudomonas aeruginosa", "conditions": "16 µg/mL, with: pentamidine 50 µM", "scale": "relative to: control", "measurement": "growth", "result": "86.1%"}
{"SMILES": "COC[C@H]1O[C@@H]2O[C@H]3[C@H](OC)[C@@H](OC)[C@@H](O[C@H]4[C@H](OC)[C@@H](OC)[C@@H](O[C@H]5[C@H](OC)[C@@H](OC)[C@@H](O[C@H]6[C@H](OC)[C@@H](OC)[C@@H](O[C@H]7[C@H](OC)[C@@H](OC)[C@@H](O[C@H]8[C@H](OC)[C@@H](OC)[C@@H](O[C@H]1[C@H](OC)[C@H]2OC)O[C@@H]8COC)O[C@@H]7COC)O[C@@H]6COC)O[C@@H]5COC)O[C@@H]4COC)O[C@@H]3COC", "organism": "Escherichia coli", "test": "LuxR reporter, agonist", "test system": "DH5α sensor strain", "conditions": "20 µM", "measurement": "bioluminescence", "result": "772 ± 168 RLU"}
{"SMILES": "COC(=O)[C@@H](CCSC)NCc1cc2ccccc2nc1SC", "organism": "Pseudomonas aeruginosa", "conditions": "128 µg/mL, with: pentamidine 50 µM", "scale": "relative to: control", "measurement": "growth", "result": "78%"}
{"SMILES": "CC1=C[C@H](O/C=C2/C(=O)O[C@@H]3c4ccccc4C[C@H]23)OC1=O (racemic)", "organism": "Arabidopsis thaliana", "test system": "atd14-1 mutant, seedlings", "conditions": "1 µM", "measurement": "hypocotyl length", "result": "7.06 mm"}
{"SMILES": "N=C(N)c1ccc(OCc2ccc(Br)cc2COc2ccc(C(=N)N)cc2)cc1", "organism": "Escherichia coli", "test": "checkerboard", "test system": "ATCC 25922", "conditions": "unit not given, with: rifampicin", "scale": "lower = stronger synergy", "measurement": "FICI", "result": "≤ 0.031"}
{"SMILES": "CCOC(=O)c1c(C)nc(NCCCCNc2ccnc3cc(Cl)ccc23)nc1-c1ccccc1", "organism": "feline herpesvirus", "test": "viral replication", "test system": "CRFK", "measurement": "EC50", "result": "> 4000 nM"}
{"SMILES": "C[C@@H]1[C@H](O)[C@@H](C)/C=C/C=C/C=C/C=C/C=C/C=C/C=C/[C@H](O[C@@H]2O[C@H](C)[C@@H](O)[C@H](N)[C@@H]2O)C[C@@H]2O[C@](O)(C[C@@H](O)C[C@@H](O)[C@H](O)CC[C@@H](O)C[C@@H](O)CC(=O)O[C@H]1C)C[C@H](O)[C@H]2C(=O)O", "organism": "Aspergillus fumigatus", "test": "XTT, preformed biofilm", "test system": "Af 293", "conditions": "1 × MIC, 24 h", "measurement": "biofilm mass reduction", "result": "44 to 50%"}
{"SMILES": "CCN1CCC(CCNCc2cc3cc(-c4ccccc4)ccc3nc2SCc2ccccc2)CC1", "organism": "Acinetobacter baumannii", "test": "NADH-driven proton pumping, ACMA quenching", "test system": "inverted membrane vesicles", "conditions": "2 µg/mL", "measurement": "inhibition", "result": "0%"}
{"SMILES": "CN[C@H](CC(C)C)C(=O)N[C@H]1C(=O)N[C@@H](CC(N)=O)C(=O)N[C@H]2C(=O)N[C@H]3C(=O)N[C@H](C(=O)N[C@H](C(=O)O)c4cc(O)cc(O)c4-c4cc3ccc4O)[C@H](O)c3ccc(c(Cl)c3)Oc3cc2cc(c3O[C@@H]2O[C@H](CO)[C@@H](O)[C@H](O)[C@H]2O[C@H]2C[C@](C)(N)[C@H](O)[C@H](C)O2)Oc2ccc(cc2Cl)[C@H]1O", "organism": "Enterococcus faecium", "test system": "Enterococcus faecalis", "conditions": "40 strains", "measurement": "MIC90", "result": "1 µg/mL"}
{"SMILES": "COc1cc2c(cc1C(=O)Nc1ccc(C(C)(C)C)cc1)CCCCC2", "organism": "Dengue virus 2", "test": "viral replication", "test system": "HEK293", "measurement": "EC90", "result": "600 nM"}
{"SMILES": "CC(C)n1ncc2c(C(=O)NCC3(C)CNC3)cc(C3CC3)nc21", "organism": "coxsackievirus B3", "test": "CPE", "test system": "Vero", "conditions": "0.015 µM", "measurement": "cell protection", "result": "-0.0343% and 0.0343%"}
{"SMILES": "CCN1CCC(CCNCc2cc3cc(OC)c(OC)c(OC)c3nc2SCc2ccccc2)CC1", "organism": "Acinetobacter baumannii", "test": "NADH-driven proton pumping, ACMA quenching", "test system": "inverted membrane vesicles", "conditions": "32 µg/mL", "measurement": "inhibition", "result": "72%"}
{"SMILES": "CCOC(=O)c1c(C)nc(NCCNc2ccnc3cc(Cl)ccc23)nc1-c1ccccc1", "organism": "feline herpesvirus", "test": "viral replication", "test system": "CRFK", "measurement": "EC50", "result": "> 4000 nM"}
{"SMILES": "CC[C@H]1OC(=O)[C@H](C)[C@@H](O[C@H]2C[C@@](C)(OC)[C@@H](O)[C@H](C)O2)[C@H](C)[C@@H](O[C@@H]2O[C@H](C)C[C@H](N(C)C)[C@H]2O)[C@](C)(O)C[C@@H](C)/C(=N\\OCOCCOC)[C@H](C)[C@@H](O)[C@]1(C)O", "organism": "Enterococcus faecium", "test": "agar dilution", "test system": "vancomycin-susceptible, 64 isolates", "measurement": "MIC50", "result": "64 µg/mL"}
{"SMILES": "Cc1nc2[nH]c(=O)n(O)c(=O)c2s1", "organism": "Echinochloa crus-galli", "test": "glasshouse pot", "conditions": "750 g/ha, 21 days, post-emergence", "measurement": "inhibition", "result": "0%"}
